Published values gathered from unrelated publications.
Values joined by “and” are separate records of one study, mostly repeats; a detail may differ. Numbers after ± are the reported error.
inhA: Enoyl-[acyl-carrier-protein] reductase [NADH] (inhA, Mycobacterium tuberculosis, UniProt P9WGR1)
ACHE: Acetylcholinesterase (ACHE, Homo sapiens, UniProt P22303)
folA: Dihydrofolate reductase (folA, Mycobacterium tuberculosis, UniProt P9WNX1)
FYN G534I/P533E/Q532E: Tyrosine-protein kinase Fyn (FYN, Homo sapiens, UniProt P06241, G534I/P533E/Q532E)

Chains of the proteins cited; added tags and fusions are not shown. Lines headed by an entry give the natural chain unless they say otherwise; changes in a name come on top.
UniProt P9WGR1, whole entry: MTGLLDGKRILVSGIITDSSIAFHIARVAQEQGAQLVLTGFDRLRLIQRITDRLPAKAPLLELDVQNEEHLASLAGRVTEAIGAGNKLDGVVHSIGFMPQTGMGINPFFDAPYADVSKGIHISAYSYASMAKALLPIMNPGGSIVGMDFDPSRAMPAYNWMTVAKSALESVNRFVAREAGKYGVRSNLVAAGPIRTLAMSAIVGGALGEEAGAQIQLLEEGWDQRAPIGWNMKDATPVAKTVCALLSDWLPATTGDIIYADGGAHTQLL
UniProt P22303, whole entry, looked up: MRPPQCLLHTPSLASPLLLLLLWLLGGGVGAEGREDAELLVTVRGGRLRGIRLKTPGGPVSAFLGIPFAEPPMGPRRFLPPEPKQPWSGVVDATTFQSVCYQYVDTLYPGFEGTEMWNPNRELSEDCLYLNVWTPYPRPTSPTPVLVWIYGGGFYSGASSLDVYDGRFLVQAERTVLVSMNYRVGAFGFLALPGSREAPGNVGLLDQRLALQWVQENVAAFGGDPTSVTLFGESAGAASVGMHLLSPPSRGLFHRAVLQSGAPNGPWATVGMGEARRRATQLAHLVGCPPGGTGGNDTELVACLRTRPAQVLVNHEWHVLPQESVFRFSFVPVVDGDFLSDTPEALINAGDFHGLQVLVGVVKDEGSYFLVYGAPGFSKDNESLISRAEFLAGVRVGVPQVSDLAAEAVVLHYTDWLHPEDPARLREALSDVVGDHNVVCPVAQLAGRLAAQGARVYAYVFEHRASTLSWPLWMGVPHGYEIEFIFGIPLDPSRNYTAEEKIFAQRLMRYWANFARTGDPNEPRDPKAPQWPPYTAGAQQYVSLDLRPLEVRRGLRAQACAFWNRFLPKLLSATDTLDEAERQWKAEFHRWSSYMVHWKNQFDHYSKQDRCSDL
UniProt P9WNX1, whole entry: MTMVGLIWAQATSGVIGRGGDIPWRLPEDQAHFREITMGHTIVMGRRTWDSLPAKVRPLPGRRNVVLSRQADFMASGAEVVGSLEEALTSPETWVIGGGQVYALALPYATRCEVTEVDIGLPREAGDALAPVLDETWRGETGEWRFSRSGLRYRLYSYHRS
UniProt P06241, whole entry, looked up: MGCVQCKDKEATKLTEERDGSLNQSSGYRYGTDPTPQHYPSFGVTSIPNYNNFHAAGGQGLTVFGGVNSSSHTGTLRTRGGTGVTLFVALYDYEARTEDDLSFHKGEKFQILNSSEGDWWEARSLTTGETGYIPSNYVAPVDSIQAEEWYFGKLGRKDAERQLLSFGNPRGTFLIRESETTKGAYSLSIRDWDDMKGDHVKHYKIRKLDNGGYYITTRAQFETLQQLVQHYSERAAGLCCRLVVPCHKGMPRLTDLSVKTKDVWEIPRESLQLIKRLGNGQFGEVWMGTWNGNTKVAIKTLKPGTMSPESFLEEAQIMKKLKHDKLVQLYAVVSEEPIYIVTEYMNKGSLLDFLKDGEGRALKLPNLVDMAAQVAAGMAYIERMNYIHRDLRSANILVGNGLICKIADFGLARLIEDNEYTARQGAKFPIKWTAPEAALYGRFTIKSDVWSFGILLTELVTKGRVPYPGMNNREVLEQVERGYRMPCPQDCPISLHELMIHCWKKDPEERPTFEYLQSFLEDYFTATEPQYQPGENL
UniProt P35462, whole entry: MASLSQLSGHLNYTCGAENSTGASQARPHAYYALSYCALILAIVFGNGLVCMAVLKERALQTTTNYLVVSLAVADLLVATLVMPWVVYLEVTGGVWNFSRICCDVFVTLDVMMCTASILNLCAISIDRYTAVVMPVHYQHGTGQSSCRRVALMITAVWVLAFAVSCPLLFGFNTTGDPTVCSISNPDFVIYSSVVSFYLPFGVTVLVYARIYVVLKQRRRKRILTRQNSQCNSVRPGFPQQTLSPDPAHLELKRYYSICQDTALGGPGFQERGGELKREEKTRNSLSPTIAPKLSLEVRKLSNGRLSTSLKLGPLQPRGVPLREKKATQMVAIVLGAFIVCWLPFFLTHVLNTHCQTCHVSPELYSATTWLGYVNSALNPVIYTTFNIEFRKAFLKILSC
UniProt P28223, whole entry: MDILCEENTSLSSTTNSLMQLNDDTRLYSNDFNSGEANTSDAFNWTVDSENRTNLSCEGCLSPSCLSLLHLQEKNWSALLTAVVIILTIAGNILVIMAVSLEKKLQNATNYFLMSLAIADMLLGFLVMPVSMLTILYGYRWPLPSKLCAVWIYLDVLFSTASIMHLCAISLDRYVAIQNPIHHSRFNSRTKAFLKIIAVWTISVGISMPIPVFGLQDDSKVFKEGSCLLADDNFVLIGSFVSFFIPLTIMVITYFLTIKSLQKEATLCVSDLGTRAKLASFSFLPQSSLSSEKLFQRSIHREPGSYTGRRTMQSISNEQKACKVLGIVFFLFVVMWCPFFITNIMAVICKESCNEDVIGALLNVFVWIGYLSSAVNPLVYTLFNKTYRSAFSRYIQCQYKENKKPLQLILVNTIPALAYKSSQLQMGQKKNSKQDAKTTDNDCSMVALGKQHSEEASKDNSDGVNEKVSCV
UniProt P35372, whole entry: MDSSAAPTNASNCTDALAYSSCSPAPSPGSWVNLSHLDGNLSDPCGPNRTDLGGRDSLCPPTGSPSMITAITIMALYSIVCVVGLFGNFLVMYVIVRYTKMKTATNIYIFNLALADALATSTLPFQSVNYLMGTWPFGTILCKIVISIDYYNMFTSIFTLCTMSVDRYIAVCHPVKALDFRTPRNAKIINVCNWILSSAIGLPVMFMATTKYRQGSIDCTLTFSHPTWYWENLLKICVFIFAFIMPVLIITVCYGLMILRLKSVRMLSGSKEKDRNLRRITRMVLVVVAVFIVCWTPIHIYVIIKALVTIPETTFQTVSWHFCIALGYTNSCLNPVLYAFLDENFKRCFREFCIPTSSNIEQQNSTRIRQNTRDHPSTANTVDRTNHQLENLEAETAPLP
UniProt I6WXK4, whole entry: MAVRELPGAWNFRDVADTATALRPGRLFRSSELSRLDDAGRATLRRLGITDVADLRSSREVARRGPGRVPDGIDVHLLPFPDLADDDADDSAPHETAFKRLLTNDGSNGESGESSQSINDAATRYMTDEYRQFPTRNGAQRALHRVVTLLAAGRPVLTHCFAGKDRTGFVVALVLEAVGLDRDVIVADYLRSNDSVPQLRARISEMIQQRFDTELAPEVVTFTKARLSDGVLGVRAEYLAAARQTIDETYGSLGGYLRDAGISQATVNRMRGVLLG

`NCCNCCSc1ccccc1` has a pKa of 6.1 (spectrophotometry; pH 6.2).
`N#Cc1ccccc1Oc1ccc(Cn2cc(C3CCCCC3)nn2)cc1O` has a Ki of 6300 ± 1300 nM (inhA; enzyme activity, slow-onset inhibitor; 20 °C, initial EI complex).
`CC(CCN[C@H](CN[C@H](CO)CN1CCC[C@H]1CN[C@H](CN)c1ccccc1)c1ccccc1)c1ccccc1` (stereo partly drawn): “potentiation of amikacin” 3.1 fold (Escherichia coli; bacterial growth; 16 µM, fold shift of IC90, together with: amikacin).
`N#Cc1ccccc1Oc1ccc(Cn2cc(C3CCCC3)nn2)cc1O` gave a Ki of 350 ± 70 nM (inhA; enzyme activity, slow-onset inhibitor; 20 °C, final EI* complex).
`COc1ccc(CN[C@@H]2CO[C@H](C(c3ccccc3)c3ccccc3)C[C@H]2O)cc1` has an inhibition of 15.3% (DRD3 (Homo sapiens, UniProt P35462); radioligand binding; 10 µM, together with: [3H]N-methylspiperone).
The Ki of `CCN(CC)Cc1cc(N)ccc1O` is reported as 6300 ± 900 nM (ACHE; enzyme activity, competitive inhibitor; together with: acetylthiocholine).
The Ki of `COC(=O)CC[C@H](NC(=O)c1ccc(N(C)Cc2cnc3nc(N)nc(N)c3n2)cc1)C(=O)OC` is reported as 193 ± 15.2 nM (folA).
For `C[C@H](CS)C(=O)N[C@H](Cc1c[nH]c2ccccc12)C(=O)O`, “MIC of meropenem” read 16 µg/mL (Klebsiella pneumoniae; VIM-1 producing; 10 µM, together with: meropenem).
With `Cc1ccc(C(=O)C(C)N2CCCC2)cc1` (racemic) the Ki was 3200 nM and < 3500 nM (HTR2A (Homo sapiens, UniProt P28223); together with: [3H]ketanserin).
For `CN1CC[C@]23c4c5ccc(O)c4O[C@H]2c2ncc(-c4ccc(Cl)cc4)cc2C[C@@]3(OCCCc2ccccc2)[C@H]1C5`, the Ki was 19.7 ± 0.9 nM (OPRM1 (Homo sapiens, UniProt P35372); binding, [3H]diprenorphine displacement; CHO membranes).
The Ki of `CC(C)n1nc(-c2ccc3c(c2)OCO3)c2c(N)ncnc21` is reported as 5200 nM (FYN G534I/P533E/Q532E; inhibitor).
`CCOC(=O)CC[C@H](NC(=O)c1ccc(N(C)Cc2cnc3nc(N)nc(N)c3n2)cc1)C(=O)OCC` has a Ki of 12.2 ± 0.15 nM (folA).
For `N#Cc1ccccc1Oc1ccc(Cn2cc(C3CC3)nn2)cc1O`, the Ki was 370 ± 10 nM (inhA; enzyme activity, slow-onset inhibitor; 20 °C, final EI* complex).
`CC(C)(C)c1cc[n+](CCCCCCCC[n+]2ccc(C(C)(C)C)cc2)cc1` gave a Ki of 90 nM (ACHE; enzyme activity, inhibitor).
For `C=CC(=O)Nc1cc(-n2c(=O)ccc3cnc4ccc(-c5cn[nH]c5)cc4c32)ccc1C`, the GI50 was 1400 nM (U-937; cell growth; 72 h).
With `CC(C)n1nc(-c2ccc3cc(OCc4ccccc4)ccc3c2)c2c(N)ncnc21` the Ki was 24 nM (FYN (Homo sapiens, UniProt P06241, G531I/P530I/Q529E); inhibitor).
With `Cc1ccccc1Oc1ccc(Cn2cc(C3CC3)nn2)cc1O` the Ki was 70 ± 14 nM (inhA; enzyme activity, slow-onset inhibitor; 20 °C, final EI* complex).
For `NC[C@@H](NC[C@@H]1CCCN1C[C@@H](CO)NC[C@@H](NCCc1ccc(-c2ccccc2)cc1)c1ccccc1)c1ccccc1`, “potentiation of amikacin” read 1 fold (Klebsiella pneumoniae; bacterial growth; 8 µM, fold shift of IC90, together with: amikacin).
For `Nc1ncnc2c1c(-c1cnc3[nH]ccc3c1)nn2C1CCCC1`, the Ki was 260 nM (FYN G534I/P533E/Q532E; inhibitor).
`CCCCCCCCCCCCNC(=O)N[C@H](C(=O)N[C@H]1/C=C/CCNC(=O)/C=C/[C@H](C)NC1=O)C(C)C` gave a Ki of 26.8 ± 5.2 nM (PSMB5 (Homo sapiens, UniProt P28074); chymotrypsin-like activity, inhibitor, Proteasome-Glo; MM.1R; 24 h).
The Ki of `O=C(O)c1cc2cc(Cl)cc(OCc3cn(CCC(=O)N4CCC(c5ccc(Cl)c(Cl)c5)CC4)nn3)c2c(Cl)c1OCc1cn(CCC(=O)N2CCC(c3ccc(Cl)c(Cl)c3)CC2)nn1` is reported as 160 nM and 162 nM (ptpB (Mycobacterium tuberculosis, UniProt I6WXK4); inhibitor).

Some of these lines once more:
The Ki of `CCN(CC)Cc1cc(N)ccc1O` is reported as 6300 ± 900 nM (ACHE; enzyme activity, competitive inhibitor; together with: acetylthiocholine).
For `N#Cc1ccccc1Oc1ccc(Cn2cc(C3CC3)nn2)cc1O`, the Ki was 370 ± 10 nM (inhA; enzyme activity, slow-onset inhibitor; 20 °C, final EI* complex).
`N#Cc1ccccc1Oc1ccc(Cn2cc(C3CCCCC3)nn2)cc1O` has a Ki of 6300 ± 1300 nM (inhA; enzyme activity, slow-onset inhibitor; 20 °C, initial EI complex).
